Published values from different studies.
A part holds a random share of what one study measured.

Study 1
Target: Histone acetyltransferase KAT6A, winged helix 2, GST fusion (KAT6A, Homo sapiens, UniProt Q92794, residues 85-181)
Technique: protein binding microarray
Form: double-stranded DNA, one strand shown
Sample: in vitro
Concentration: not given
Notes: 8-mer, flanks averaged, mean of 2 arrays, mostly near background
Baseline: not given
Reading: higher = stronger binding
Construct (chain): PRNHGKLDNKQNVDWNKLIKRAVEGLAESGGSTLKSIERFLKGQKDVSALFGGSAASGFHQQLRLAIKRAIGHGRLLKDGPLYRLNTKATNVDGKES
| Oligonucleotide | E-score |
| --- | --- |
| TTGCACAA | 0.0078 |
| CTTGGCGC | 0.137 |
| AGAGCTAA | -0.00804 |
| GGGTAAAC | 0.0285 |
| CTAAACGA | 0.0465 |
| CGGGATCC | 0.15 |
| GGGGTATA | -0.212 |
| AACCCAAT | -0.0932 |
| ACATGTTA | -0.144 |
| AAAACCTG | -0.14 |
| ATGGATAG | -0.0661 |
| AGGGATGG | 0.0423 |
| ATTGAGAG | 0.00365 |
| CTTGTGTA | -0.0842 |
| AAAGTACT | -0.227 |
| GCATCAGC | 0.179 |
| CGGATTCC | -0.0146 |
| ATAGCATA | 0.0711 |
| AACAGAGG | -0.0605 |
| ATCGGCCA | 0.0189 |
| CACGAGGG | 0.111 |
| AATACAAT | 0.0439 |
| CCTTGACG | -0.0733 |

Study 2
Target: Phosphate system positive regulatory protein PHO4, full length, GST-tagged (PHO4, Saccharomyces cerevisiae, UniProt P07270, residues 1-312)
Technique: competition protein-binding microarray
Form: double-stranded DNA, one strand shown
Sample: in vitro
Concentration: 2 µM
Notes: whole 60-bp probe, lowest competitor level
Together with: Cbf1 competitor, 0.05 µM
Reading: higher = stronger binding
All sequences stand within: … GTCTTGATTCGCTTGACGCTGCTG
Residues (chain): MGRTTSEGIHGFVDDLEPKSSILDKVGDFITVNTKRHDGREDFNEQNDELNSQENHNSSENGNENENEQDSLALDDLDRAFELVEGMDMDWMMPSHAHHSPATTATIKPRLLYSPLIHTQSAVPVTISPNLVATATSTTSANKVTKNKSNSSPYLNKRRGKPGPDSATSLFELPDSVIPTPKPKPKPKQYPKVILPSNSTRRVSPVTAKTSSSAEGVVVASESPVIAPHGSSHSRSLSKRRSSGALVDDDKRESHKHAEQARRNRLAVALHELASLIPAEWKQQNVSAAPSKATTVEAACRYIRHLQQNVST
| Oligonucleotide | fluorescence intensity [a.u.] |
| --- | --- |
| CTTCTGTAAATTTGTGCGGTGGGTGGACGCGCCCCG | 4790 |
| TAGTTTGCTGTCCGTCACGTGCTAAAGGGTCTGATA | 15600 |
| GGAAAACCGCCCCATCACGCTGACCCCTTTGGCCCG | 4960 |
| CTAACGAAGGTTTGAATAGTGGGTGACAAGCCAAGT | 3540 |
| AAAAGTGGGAGCTCATTCGTGATGGGGAAGCAGAGA | 4130 |
| GGCTCGCGCTAGAATCGTGTGCAGCAGCTCCACATC | 6280 |
| GACCTTATCAAAAAGCACGCTGCCGGCCAAGAAGTG | 8530 |
| AAATTACTAAGTTGCAACGTGGGTGACGCCGTATGA | 14400 |
| AAATTACTAAGTTGAGGGGTGGGTGACGCCGTATGA | 4590 |
| CGCATATTTCCATAGCGCGTGACGGTAAGTACAAGA | 8790 |
| CCTCACTCTTTTCCTCTCGTGACGGATTCAACATCA | 6090 |
| ATCTATATACATATTTATATATATTATTAGAACTTT | 3310 |
| CTTCTGTAAATTTGGCACGTGGGTGGACGCGCCCCG | 19600 |
| TTCCGTCTTGGGAGTCAGGTGGAAGTAACCTGCGGG | 3840 |
| CATACCCAACCTTGTGCCGTGGGTGAAGATATTTGT | 7420 |
| CTTCTGTAAATTTTTCACGTGGATTGACGCGCCCCG | 11500 |
| AAATTACTAAGTTGCTCAGTGGGTGACGCCGTATGA | 3490 |
| CGGGGTTAAGTTTGTATGGTGGGTGGCTTGCAGCAG | 4720 |
| AAGCATCCTTGTTTGCACGGGATGCCCTGCACAGTA | 8060 |

Study 3
Target: Ras GTPase-activating protein-binding protein 1, C-terminal RGG region (G3BP1, Homo sapiens, UniProt Q13283)
UniProt Q13283, sequence (whole entry, looked up): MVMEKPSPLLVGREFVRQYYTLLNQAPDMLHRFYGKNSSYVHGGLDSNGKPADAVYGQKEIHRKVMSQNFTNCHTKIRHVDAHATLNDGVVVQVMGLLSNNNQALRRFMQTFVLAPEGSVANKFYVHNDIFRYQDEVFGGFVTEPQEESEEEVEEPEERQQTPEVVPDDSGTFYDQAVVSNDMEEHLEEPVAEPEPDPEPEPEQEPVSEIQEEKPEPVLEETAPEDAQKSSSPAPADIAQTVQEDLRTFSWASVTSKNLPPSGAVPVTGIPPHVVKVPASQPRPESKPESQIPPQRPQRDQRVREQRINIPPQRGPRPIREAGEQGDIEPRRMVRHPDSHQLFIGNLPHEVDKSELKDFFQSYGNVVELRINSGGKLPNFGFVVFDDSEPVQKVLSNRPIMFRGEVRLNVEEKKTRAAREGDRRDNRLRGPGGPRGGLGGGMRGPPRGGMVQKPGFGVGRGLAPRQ
Technique: RNA Bind-n-Seq
Form: RNA
Sample: in vitro
Concentration: 1 µM
Notes: whole 134-nt RNA, ends assumed
Together with: 150 mM KCl
Baseline: input library
Reading: higher = stronger binding
All sequences stand within: GGGAGUUCUACAGUCCGACGAUC … UGGAAUUCUCGGGUGUCAAGG
| Oligonucleotide | log2 enrichment |
| --- | --- |
| UGGCCCUGGUGGCAUGCGGGGAGGAAGAGGUGGCCUCAUGGAUCGUGGUGGUCCCGGUGGAAUGUUGAGAGGUGGCCGUGGUGGAGACAG | 3.35 |
| UCCUGUGCUACACAUCGUAUGUACCGAAUCGGGGAAAAAAAGGGGAAAAAGGGGAGGGGAAAGUAUUAUGUUACGCCGUUCGGAUCUGCA | 1.85 |
| AAGUCCUGUGCUACACAUCGUAUGUACCGAAUCGGUUUUUGGUUUUUGGGUUUUUGGAAAGUAUUAUGUUACGCCGUUCGGAUCUGCACU | -1.41 |
| CACAGACAACACGCACCCACACAGACACAGAGGGAAGGGGUUGGGAGGGGGACAGGGUGCACAGCAGGGCGGGGUAGGACCCCAGCCCCU | -0.592 |
| UCCUGUGCUACACAUCGUAUGUACCGAAUCGGGGUUUUUGGGGUUUUUGGUUUUUGGGGAAAGUAUUAUGUUACGCCGUUCGGAUCUGCA | -0.352 |
| ACCAUGCAUGUGGGCAUCUUUGGGAAGUGGGGCAAGGGGGGGAUAGGGAGGGGGGUAACACUUUGGGAACAGGUGGUCCCAGGUCGUUUC | -1.41 |
| UAACUUUAGAGGAGGAUCUGAUGGAUAUGGCAGUGGACGUGGAUUUGGGGAUGGCUAUAAUGGGAAUGGAGGAGGACCUGGAGGUGGCAA | -0.92 |
| AGUCCUGUGCUACACAUCGUAUGUACCGAAUCGGGUUUUUGGGAGGGAAAAAAAGGGAAAGUAUUAUGUUACGCCGUUCGGAUCUGCACU | -0.196 |
| AAGUCCUGUGCUACACAUCGUAUGUACCGAAUCGGGGUUUGGGUUUGGGGUUUGGGAAAGUAUUAUGUUACGCCGUUCGGAUCUGCACUU | 1.64 |

Study 4
Target: RING finger protein unkempt homolog, zinc fingers 1-6, GST-SBP tag (UNK, Homo sapiens, UniProt Q9C0B0, residues 30-357)
UniProt Q9C0B0, sequence (30-357, looked up): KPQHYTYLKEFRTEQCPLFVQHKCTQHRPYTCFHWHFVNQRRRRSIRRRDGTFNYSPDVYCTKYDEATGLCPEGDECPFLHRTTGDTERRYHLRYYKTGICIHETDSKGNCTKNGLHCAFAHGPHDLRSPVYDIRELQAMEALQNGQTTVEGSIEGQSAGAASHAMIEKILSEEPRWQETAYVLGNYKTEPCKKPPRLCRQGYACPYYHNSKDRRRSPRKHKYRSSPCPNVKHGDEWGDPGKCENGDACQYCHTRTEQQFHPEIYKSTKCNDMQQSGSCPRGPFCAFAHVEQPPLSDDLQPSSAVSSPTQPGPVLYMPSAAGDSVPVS
Technique: RNA Bind-n-Seq
Form: RNA
Sample: in vitro
Concentration: not given
Notes: RNA with constant flanks, human-mouse chimeric sites, ends assumed
Baseline: input RNA pool
Reading: higher = stronger binding
All sequences stand within: GGGAGUUCUACAGUCCGACGAUC … CAACAGAGGAUUGAGCAUCA
| Oligonucleotide | bound/input enrichment |
| --- | --- |
| UAAGUUAAGCUUUUAAUCUUUGUAAAUUCUUAACAUUUUUAUAUUGCACAUUUUAUGUUGUUUGGGUAAUUUGGUUCAUUAAGUACAUAGCUAAGGUAAUGAACAUCUUUUUCAGUAAUU | 0.55 ratio |
| GAUCCACAGUGGUCUGAGGAGCAACUCAUUGCUGCAAAAUUCUGUUUUGCUGGACUUGUUAUAGGGCAGACUGAAGUGGACAUCAUGAGUCAUGCCACACAGGCUAUUUUUGAAAUUCUG | 0.209 ratio |
| AAAGAACCUCUCUCUGAUGAAGAUGAGGAAGACAAUGAUGAUGUUGAACCCAUUUCUGAAUUUCGAUUUGUGCCCAGUGAUAAGUCAGCGUUGGAGGCGAUGUUCACAGCAAUGUGUGAG | 0.244 ratio |
| CUCAGAGAUGUGGCAUAUCAAUAUGUGAAAAAGGGGGCUCGUAUAUUUGUGGAAGGGAAAGUGGACUAUGGCGAGUACAUGGAUAAAAACAAUGUGAGGCGACAAGCAACAACAAUCAUA | 0.308 ratio |
| UUAAUCCCCUUUACUGCUCCCCCACUUCUCAUGGUAAUAACAAAGUCUUAUAUUCCCGUCCUAGCUUUCACUCAGAUGGCUUAUGGAGCCGGUUUCCUAUCUUUCUUGGGAGGGAUCAGA | 0.208 ratio |
| UCUUAACUUAUUCAUUUAACUUAUUUUUAUAGCUAGAUAAAUAUUGUUAGUCUUAGUCAAUAGCUCACAUUUUUUGAAAAGCAUGCUCUCCCUGUCCAUUUGUCUUAUAACAUGACCCAG | 57.7 ratio |
| AAAUUUCCCCUCCUGAGACCUCCUCCGAAGUUGGAGUCUCUUACAGAUGCCUCAUCCCCUGUUAGUAUUUUAGUUUGGACCACCCAGCCUUGGACAAUUCCCGCCAACCAGGCAAUUUGC | 2.33 ratio |
| CCCCAAUUACCAUCUGUGGUCUGGAACUGCACUCUCUUUUUUAAAAAACAUGUAUACAUUUUAGGGCUGUAGAUUUAUUUUCCUGGUUUUGUUUUUCAUUGCUGACUUUGAGCACAAGAA | 3.04 ratio |

Some of these lines once more (study 2):
| Oligonucleotide | fluorescence intensity [a.u.] |
| --- | --- |
| CTTCTGTAAATTTGGCACGTGGGTGGACGCGCCCCG | 19600 |
| TTCCGTCTTGGGAGTCAGGTGGAAGTAACCTGCGGG | 3840 |
| CATACCCAACCTTGTGCCGTGGGTGAAGATATTTGT | 7420 |
| CTTCTGTAAATTTTTCACGTGGATTGACGCGCCCCG | 11500 |
| AAATTACTAAGTTGCTCAGTGGGTGACGCCGTATGA | 3490 |
| CGGGGTTAAGTTTGTATGGTGGGTGGCTTGCAGCAG | 4720 |
| AAGCATCCTTGTTTGCACGGGATGCCCTGCACAGTA | 8060 |
